Results of several laboratories.
Protocols differ between the studies behind these lines. Several values in a cell are separate wells, animals, samples, runs or records. ± gives the spread as reported.

SMILES	tested on	assay	system	setting	how to read	quantity	value
N#Cc1ccc2c(c1)[C@H]1CCCN(C(=O)c3ccc4[nH]cnc4c3)[C@H]1C2	–	–	human, Phase II trial	20 mg once daily, day 28, adjusted mean	relative to: baseline	HOMA-IR change	1.2 mmol/L × mU/L
C[C@H]1C[C@H]2CSC(N)=N[C@@]2(c2nc(NC(=O)c3ccc(OC(F)F)cn3)cs2)CO1	–	measured: Aβ1-40	healthy adults, plasma	125 mg once daily, day 7	relative to: placebo	percent change from baseline	-87.1%
CC(C)n1c(C2CCNCC2)nc2c([N+](=O)[O-])c(Br)c(Br)cc21	–	measured: blasts	AML patients IDH mutated, bone marrow	dose not given, all doses	–	maximum change from baseline	279%
Cn1cc([C@H]2C[C@H]3CSC(N)=N[C@@]3(c3ccc(F)cc3F)CO2)cn1	–	measured: Aβx-42	Mus musculus wild-type, brain	subcutaneous, 10 mg/kg, 3 h	–	Aβ42 level	0.44 ng/g
NS(=O)(=O)OC[C@@H]1C[C@@H](n2ccc3c(N[C@H]4CCc5ccccc54)ncnc32)C[C@@H]1O	–	measured: NAE-regulated genes (NQO1, SRXN1, TXNRD1, GCLM, GSR, SLC7A11, ATF3)	PBMCs, human patients	dose not given	–	gene expression	increased
CC(C)(O)c1cn(-c2ccc(-c3cccc(S(C)(=O)=O)c3)cc2)c(C(C)(C)c2ccccc2Cl)n1	–	gene induction, agonist, measured: ABCG1	Macaca fascicularis, whole blood	–	relative to: pan agonist B	Emax	41%
CC1(C)CCC2=C(O1)c1ccccc1C(=O)C2=O	Toxoplasma gondii	parasite growth	HFF, bradyzoite, glutamine-induced	–	–	EC50	1.19 µM
N#Cc1ccn2c(-c3ccncc3)c(-c3ccc(F)cc3)nc2c1	–	kinase binding, competitor, MIB/MS competition, measured: CEK1	Candida albicans cell lysate	100 nM	relative to: DMSO	log2 fold change	0.147
OC(CCN1CCCCC1)(c1ccccc1)C1CC2C=CC1C2 (stereo not drawn)	–	resting-state EEG	healthy elderly humans	oral, 4 mg, eyes open, LS mean	–	EEG power, delta, Fz-Cz	9.7 µV²
CSCCNc1nc(SCCC(F)(F)F)nc2c1ncn2[C@@H]1O[C@H](COP(=O)(O)OP(=O)(O)C(Cl)(Cl)P(=O)(O)O)[C@@H](O)[C@H]1O	–	ADP-induced platelet aggregation, LTA, >46% aggregation	human patients, platelet-rich plasma	dose not given, 4 to 6 h, with: ADP 5 µM	–	patients with high reactivity	71.1%
Cc1ccc([C@@H]2O[C@H](CO)[C@@H](O)[C@H](O)[C@H]2O)cc1Cc1ccc(-c2ccc(F)cc2)s1	–	–	Japanese type 2 diabetes patients	25 mg, day 17	relative to: day 1	change in fasting plasma glucose	-25 mg/dL
O=C(O)CNC(=O)Cc1ccccc1	–	–	ventricular cardiomyocytes, C57BL/6 mouse	dose not given, 0.128 s	–	sarcomere length	1.7 µm
C[C@H](Oc1ccc(Br)cc1-c1ccon1)C(=O)O	–	muscle velocity recovery cycles	human, tibialis anterior muscle	600 mg once daily, multiple doses, multiple ascending dose	relative to: placebo	CMAP amplitude	-0.052 mV
COc1ncc(-c2nc3c(n2C(C)C)[C@H](c2ccc(Cl)cc2)N(c2cc(Cl)cn(C)c2=O)C3=O)c(OC)n1	–	International Working Group criteria	human acute myeloid leukemia patients	oral, 150 mg, response TF, high-dose, other doses	–	best overall response	83.3%
O=C1Nc2cc3[nH]nc(-c4ccncc4)c3cc2CN1Cc1ccccc1	–	RECIST v1.1	human, relapsed or refractory advanced solid tumours	intravenous, 3.6 mg/kg	–	partial response, best response	0%
O=C1CCc2ccc(OCCCCN3CCN(c4cccc(Cl)c4Cl)CC3)cc2N1	–	measured: stopping or switching	patients CYP2D6 extreme phenotypes	dose not given, 3 months	relative to: IM versus NM	hazard ratio	2.49
N#Cc1ccc2c(-c3ccncc3)c(-c3ccc(F)cc3)nn2c1	–	kinase binding, competitor, MIB/MS competition, measured: SCH9	Candida albicans cell lysate	100 nM	relative to: DMSO	log2 fold change	0.283
Cc1cc(Nc2cc3ncccc3c(N[C@@H]3C[C@H]4CC[C@@H](C3)N4CCC#N)n2)n[nH]1	–	–	moderate-severe ulcerative colitis patients	20 mg, day 28, Mayo subscore, unit not given	relative to: baseline	change in stool frequency	-0.3
Cc1nn(-c2nc3c(F)cc(F)cc3s2)c(O)c1C(c1ccc(C(F)(F)F)cc1)c1c(C)nn(-c2nc3c(F)cc(F)cc3s2)c1O	–	–	mouse, cerulein-induced acute pancreatitis	25 mg/kg	–	pancreas to body weight ratio	8.54 mg/g and 10.9 mg/g and 11.9 mg/g and 13.5 mg/g and 12.2 mg/g
COc1ccc(C[C@@H]2c3cc(OC)c(OC)cc3CC[N@+]2(C)CCC(=O)OCCCCCOC(=O)CC[N@@+]2(C)CCc3cc(OC)c(OC)cc3[C@H]2Cc2ccc(OC)c(OC)c2)cc1OC	–	–	rat, isolated soleus nerve-muscle preparation	1 µM, unit not given	relative to: control	nerve-stimulated isometric force	5.9 and 8.4 and 6.3

SMILES	tested on	assay	system	setting	how to read	quantity	value
Cc1c(NC(=O)c2cccnc2)c(=O)n(-c2ccccc2)n1C	–	histology	Dmd C3333Y mice, triceps	dose not given	–	necrotic area	6.7% and 6.2% and 4.3% and 5.8% and 5.9%
CCCCCN1C[C@H](O)[C@@H](O)[C@H](O)[C@@H]1CO	–	–	mouse Hexb-/-, cerebral cortex	30 mg/kg/day	relative to: untreated Hexb-/- mice	number of increased sphingolipids	16
CC(C)NCC(O)c1ccc(O)c(O)c1 (stereo not drawn)	–	–	ventricular cardiomyocytes, C57BL/6 mouse	dose not given, 0.48 s	–	sarcomere length	1.58 µm
O=C(OC(C(F)(F)F)C(F)(F)F)N1CCN(Cc2cccc(Oc3ccccc3)c2)CC1	–	PET blocking study	rhesus monkey, brain STR	0.01 mg/kg, compound pretreatment, with: [18F]T-401 tracer	–	k4	0.131 min⁻¹
Cc1cnc(N2CC3(CCOCC3)C2)c(C(=O)Nc2ccc(C(=O)N3CCc4cc(C(=O)Nc5c(C)cccc5F)sc4-c4ccccc43)cc2)c1	–	–	human, RSV infection, nasal wash	dose not given, ITT-I population	relative to: placebo	inhibition of CXCL8 AUC	31%
O=P(O)(O)C(Cl)(Cl)P(=O)(O)O	–	–	Mus musculus, subarachnoid haemorrhage, hippocampal fissure	concentration not given, day 7	relative to: total area	Iba1-positive area	2.39% and 1.64% and 2.31%
CCN(Cc1nc2c(N)nc3cc(-c4cc[nH]n4)ccc3c2[nH]1)C(C)=O	–	immunohistochemistry, measured: PD-L1+ immune cells	patients with advanced solid tumours, non-injected tumour lesions	dose not given, monotherapy	relative to: baseline	mean fold change	5
C[C@H]1O[C@@H](O[C@H]2CC[C@@]3(C)[C@@H](CC[C@]4(C)[C@@H]3C=C[C@]35OC[C@@]6(CCC(C)(C)C[C@H]63)[C@@H](O)C[C@]54C)[C@]2(C)CO)[C@H](O)[C@@H](O[C@@H]2O[C@H](CO)[C@@H](O)[C@H](O)[C@H]2O)[C@H]1O	–	–	Mus musculus, chronic-plus-binge ethanol, plasma	dose not given	–	AST/ALT ratio	1.83 and 1.76 and 1.98 and 1.96
NC(=O)c1cnc2[nH]ccc2c1N[C@@H]1[C@@H]2CC3C[C@H]1C[C@@](O)(C3)C2	–	flow cytometry, measured: CD8+ effector T cells	Japanese healthy subjects, peripheral blood	oral, 30 mg twice daily, day 4	–	change from baseline	-0.15%
Cc1n[nH]c2ccc(-c3cc(OC[C@@H](N)Cc4ccccc4)cnc3-c3ccoc3)cc12	–	kinase binding, competitor, MIB/MS competition, measured: IRE1	Candida albicans cell lysate	10 µM	relative to: DMSO	log2 fold change	-0.0877
CC1(C)CCC(c2ccc(Cl)cc2)=C(CN2CCN(c3ccc(C(=O)NS(=O)(=O)c4ccc(N[C@H](CCN5CCOCC5)CSc5ccccc5)c(S(=O)(=O)C(F)(F)F)c4)cc3)CC2)C1	–	cell killing	canine lymph node CD3+ T cells, dog 34	24 h	–	EC50	0.265 µM
[177Lu+3].[Cl-].[Cl-].[Cl-]	–	immunohistochemistry, measured: mature activated macrophages	BALB/c mice, 4T1 tumour	dose not given, 7 days, 4T1 tumour-bearing	–	positive cells	4.86 ± 0.65%
CCO	–	–	supine	concentration not given, 0 to 4 h	relative to: baseline	maximum change in diastolic blood pressure	-13.7 ± 5.5 mmHg
C[C@]12CC[C@@H]3c4ccc(O)cc4CC[C@H]3[C@@H]1CC[C@@H]2O	–	RT-qPCR, measured: CO	Arabidopsis thaliana ING1:FLAG seedlings	20 µM, 4 h after treatment, replicate rep1, unit not given	relative to: TUB2	mRNA level	0.0492
COc1ccc(-c2cncc(N[C@@H](C)c3cccc(NC(=O)c4cncc(C)c4)c3)n2)cc1OC	–	measured: rno-miR-136-5p	rat SU5416/hypoxia model, lung	dose not given	relative to: SU5416/hypoxia vehicle	fold change	2.5
O=C(COc1ccc(Cl)cc1)NC12CC(c3nnc([C@H]4C[C@@H](OC(F)(F)F)C4)o3)(C1)C2	–	–	healthy human, PBMC	260 mg once daily, day 15, 24 h post-dose, median, with: sodium arsenite ex vivo	relative to: baseline	ATF4 protein change	-60.9%
Cn1cc(Nc2nccc(-c3ccc4c(c3)CN(C3COC3)CC[C@H]4NC(=O)c3cn(C(C)(C)C)nn3)n2)cn1	–	measured: Endocannabinoid Neuronal Synapse Pathway	splenic B cells, Mus musculus	30 mg/kg, with: IgD activation	relative to: vehicle, direction not given	pathway activation z-score	2.5
C[n+]1cc2c3c(ccc2c2ccc4cc5c(cc4c21)OCO5)OCO3	Toxoplasma gondii	tachyzoite growth, luciferase	ME49-Fluc, type II	–	–	EC50	0.1 µM
CC(C)[C@H](C(=O)Nc1ccc(C(=O)NO)cc1)c1ccccc1	–	volumetric MRI	human, left schwannoma	dose not given, day 809	relative to: baseline	tumour volume change	-6.66%

Some of these lines once more:
SMILES	tested on	assay	system	setting	how to read	quantity	value
O=C1Nc2cc3[nH]nc(-c4ccncc4)c3cc2CN1Cc1ccccc1	–	RECIST v1.1	human, relapsed or refractory advanced solid tumours	intravenous, 3.6 mg/kg	–	partial response, best response	0%
O=C1CCc2ccc(OCCCCN3CCN(c4cccc(Cl)c4Cl)CC3)cc2N1	–	measured: stopping or switching	patients CYP2D6 extreme phenotypes	dose not given, 3 months	relative to: IM versus NM	hazard ratio	2.49
N#Cc1ccc2c(-c3ccncc3)c(-c3ccc(F)cc3)nn2c1	–	kinase binding, competitor, MIB/MS competition, measured: SCH9	Candida albicans cell lysate	100 nM	relative to: DMSO	log2 fold change	0.283
Cc1cc(Nc2cc3ncccc3c(N[C@@H]3C[C@H]4CC[C@@H](C3)N4CCC#N)n2)n[nH]1	–	–	moderate-severe ulcerative colitis patients	20 mg, day 28, Mayo subscore, unit not given	relative to: baseline	change in stool frequency	-0.3
Cc1nn(-c2nc3c(F)cc(F)cc3s2)c(O)c1C(c1ccc(C(F)(F)F)cc1)c1c(C)nn(-c2nc3c(F)cc(F)cc3s2)c1O	–	–	mouse, cerulein-induced acute pancreatitis	25 mg/kg	–	pancreas to body weight ratio	8.54 mg/g and 10.9 mg/g and 11.9 mg/g and 13.5 mg/g and 12.2 mg/g
